Assay results of several laboratories.
Lines come from different studies, so protocols differ. ± gives the spread as reported.

The survival of `O=[N+]([O-])c1ccc(N2CCN(CCC(O)c3ccc(F)cc3)CC2)c(C(F)(F)F)c1` (stereo not drawn) is reported as 114% (Salmonella typhimurium; SOS/umu test; TA1535/pSK1002; 0.001 mg/mL, 4 h, without S9 activation).
For `Cc1cc(C(=O)NC(C)(C)COc2cccc3c2C(N)=NS(=O)(=O)N3)cc(C)n1`, the revertant ratio was 1.1 (Salmonella typhimurium; Ames test, initial; TA100; 50.0 µg/plate, with: rat liver S9; reference: solvent control).
`COc1cccc(-c2n[nH]c(SCc3ccccn3)n2)c1OC`: “revertant colonies per plate” 14 (Salmonella typhimurium; Ames test, preincubation; TA1537; 0.063 mg/plate, with rat liver S9).
With `OC(CCN1CC=C(c2ccc(F)cc2)CC1)c1ccc(F)c2ccccc12` (stereo not drawn) the induction factor was 0.2 (Salmonella typhimurium; genotoxicity, SOS/umu test; TA1535/pSK1002; 0.25 mg/mL, 4 h, without S9, lower range).
`CNC(=O)c1c(N(C)N=O)ncn1C`: “revertant colonies per plate” 21.7 ± 6 (Salmonella typhimurium; mutagenicity, Ames plate incorporation; TA1535; 2500 µg/plate, without S9, methanol).
For `O=[N+]([O-])c1ccc(N2CCC(NCCC(O)c3ccc(F)c4ccccc34)CC2)c(C(F)(F)F)c1` (stereo not drawn), the induction factor was 1.89 (Salmonella typhimurium; genotoxicity, SOS/umu test; TA1535/pSK1002; 0.002 mg/mL, 4 h, with S9, full range).
`CNC(=O)c1ccc(C)c(-n2c(C)cc(OCc3ccc(F)cc3F)c(Br)c2=O)c1` has a maximum inhibition of 1.89% (human coronavirus OC43; virus-induced cell killing; MRC-5; screen).
`CC(=O)N1CCC(C(=O)N2CCN3C(=O)c4cc(-c5ccccc5)ccc4NC(=O)C3C2)CC1` (stereo not drawn) — result for “revertants per plate”: 14 (Salmonella typhimurium; TA1537; 50 µg/plate).
For `CC(C)N(N=O)C(C)C`, “revertant colonies per plate” read 43.7 ± 7 (Salmonella typhimurium; mutagenicity, Ames plate incorporation; TA98; 150 µg/plate, without S9, methanol).
`CC1CCCN(CCCNC(=O)c2cc(Sc3ccc(F)cc3)nc3ccccc23)C1` (stereo not drawn) gave a cytotoxicity efficacy of 0% (Vero-E6; CellTiter-Glo ATP; concentration not given, 72 h, first round 5-point; reference: DMSO 0%, hyamine -100%, more negative, more toxic).
`CC(C)N(C)N=O`: “revertant colonies per plate” 23.3 ± 2 (Salmonella typhimurium; mutagenicity, Ames plate incorporation; TA98; 50 µg/plate, 3 d, without S9, methanol).
The survival of `O=[N+]([O-])c1ccc(NC2CCNCC2)c(C(F)(F)F)c1` is reported as 133% (Salmonella typhimurium; SOS/umu test; TA1535/pSK1002; 0.002 mg/mL, 4 h, without S9, full range).
`CO[C@@H](C(=O)N1Cc2n[nH]c(NC(=O)c3ccc(N4CCN(C)CC4)cc3)c2C1)c1ccccc1` gave a maximum inhibition of 0% (human coronavirus OC43; virus-induced cell killing; MRC-5; maximum over 10 doses).
`O=NN1CCN(C2CCCC2)CC1`: “revertant colonies per plate” 162 ± 19 (Salmonella typhimurium; mutagenicity, Ames plate incorporation; TA100; 1500 µg/plate, 3 d, without S9, methanol).
`N#C[C@@]1(n2ccc(N)nc2=O)O[C@H](CO)[C@@H](O)[C@H]1O` has a viability of 102% (Salmonella typhimurium; TA98; 600 nM, without S9).
